# Measurements from different studies.
# Lines come from different studies, so protocols differ. Numbers after ± are the reported error.
# Target: Muscarinic acetylcholine receptor M1 (CHRM1, Homo sapiens, UniProt P11229)
# One construct used (P11229 1-460): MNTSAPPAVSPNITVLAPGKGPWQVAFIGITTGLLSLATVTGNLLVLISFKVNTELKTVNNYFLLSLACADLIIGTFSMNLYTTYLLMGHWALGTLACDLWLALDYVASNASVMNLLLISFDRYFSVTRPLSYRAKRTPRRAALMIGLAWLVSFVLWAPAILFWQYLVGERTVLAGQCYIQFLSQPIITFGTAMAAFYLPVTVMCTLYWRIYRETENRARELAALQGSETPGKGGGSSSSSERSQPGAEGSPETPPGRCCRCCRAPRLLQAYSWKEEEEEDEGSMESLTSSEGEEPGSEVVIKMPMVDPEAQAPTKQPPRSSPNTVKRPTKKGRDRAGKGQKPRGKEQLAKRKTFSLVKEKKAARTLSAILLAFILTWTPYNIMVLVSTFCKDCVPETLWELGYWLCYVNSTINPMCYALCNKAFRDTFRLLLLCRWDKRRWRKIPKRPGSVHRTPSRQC
SMILES,test,system,setting,scale,endpoint,value
COc1ccc(S(=O)(=O)N2CCc3ccccc3C2)cc1N1CCN(C(=O)c2ccc(F)cc2C(F)(F)F)CC1,cell-free assay,,1 µM,,inhibition,0.8%
CCCCCCOc1ccc(C(=O)OCC[N+]2(C)CC=CCC2)cc1 (centres unmarked),,membranes,"100 µM, 15 h, no carbachol",baseline: control,basal binding,0.97 ± 0.03 fold
Brc1ccccc1-c1nnc(CSc2nnnn2-c2ccccc2)o1,"ligand displacement, radioligand",,10 µM,,inhibition,-15%
Cc1cccc(O[C@H]2CCC[C@@H](C(C)CNCc3ccncc3)C2)c1 (relative stereo),ligand displacement,,10 µM,,inhibition,75%
C=CCn1c(=O)c2ccccc2n2c(SC3CCOC3=O)nnc12 (centres unmarked),"receptor activation, agonist",,"concentration not given, 16 h",,Emax,124 ± 12%
CCC(=O)N(C)c1ccc(Cl)c(Cl)c1,"ligand displacement, radioligand",,10 µM,,inhibition,< 10%
CCCCOc1ccc(C(=O)OCCN2CC=CCC2)cc1,,membranes,"10 µM, 15 h, no carbachol",baseline: control,basal binding,0.83 ± 0.02 fold
Cn1ccc2cc(-n3c(=O)[nH]c4sc5c(c4c3=O)CCCC5)ccc21,"cell-free assay, radioligand",,10 µM,,inhibition,-14%
COCC(=O)N1CCc2cc(-c3csc(NC(=O)c4cc(OC)cc(OC)c4)n3)ccc21,"ligand displacement, radioligand",,10 µM,,inhibition,11%
C=CCn1c(=O)c2ccccc2n2c(SCC(=O)NC3CC3)nnc12,"receptor activation, agonist",,"concentration not given, 16 h",,Emax,123 ± 8%
C[Si](C)(C)C[C@H](CN)CC(=O)O,"ligand displacement, radioligand",,250 µM,,inhibition,23%
C=CCn1c(=O)c2ccccc2n2c(SCC(=O)OC)nnc12,"receptor activation, agonist",,"concentration not given, 16 h",,Emax,149 ± 13%
CCCCCCOc1ccc(C(=O)OCCN2CC=CCC2)cc1,,membranes,"10 µM, 15 h, no carbachol",baseline: control,basal binding,1.06 ± 0.03 fold
O=C1c2sc(-c3ccc(N4CCC(F)C4)nc3F)nc2CCN1c1cccnc1 (centres unmarked),"ligand displacement, radioligand",,1 µM,,inhibition,3%

# For quick reference, copied from above:
SMILES,test,system,setting,scale,endpoint,value
COCC(=O)N1CCc2cc(-c3csc(NC(=O)c4cc(OC)cc(OC)c4)n3)ccc21,"ligand displacement, radioligand",,10 µM,,inhibition,11%
